Measured values gathered from unrelated publications.
Compare with care: the assays were run in different laboratories. ± marks the error that the study gave.

| SMILES | test | system | setting | measurement | value |
| --- | --- | --- | --- | --- | --- |
| CC(C)NC[C@@H](C(=O)N1CCN(c2ncnc3c2[C@H](C)C[C@H]3O)CC1)c1ccc(Cl)cc1 | – | human, Healthy hepatic function, plasma | oral, 100 mg single dose, NCI classification, arithmetic mean | t1/2 | 53.1 h |
| CC(C)(Sc1ccncc1-c1ccc(C#N)c2ccccc12)C(=O)O | – | human, male, Japanese, plasma | oral, 10 mg, day 1, fasted, single dose | t1/2 | 8.79 h |
| CCOc1ncc(C)c2c1[C@H](c1ccc(C#N)cc1OC)C(C(N)=O)=C(C)N2 | – | human | oral | t1/2 alpha | 2.7 h |
| COc1cc(Nc2ncc3c(n2)-c2ccc(Cl)cc2C(c2c(F)cccc2OC)=NC3)ccc1C(=O)O | – | human, plasma | oral, 60 mg twice daily, day 7, steady state, ECT | t1/2 | 28 h |
| Cc1cc(C)c2c(c1)[C@@H](N(Cc1cc(C(F)(F)F)cc(C(F)(F)F)c1)c1nnn(C)n1)CCCN2C[C@H]1CC[C@H](C(=O)O)CC1 | LC-MS/MS | human, plasma | oral, 600 mg once daily, steady state | t1/2 | 37.4 h |
| CC[C@H](C)[C@H](NC(=O)[C@H](CCC(=O)O)NC(=O)[C@H](CO)NC(=O)[C@@H](NC(=O)[C@@H](N)CO)C(C)C)C(=O)N[C@@H](CCC(N)=O)C(=O)N[C@@H](CC(C)C)C(=O)N[C@@H](CCSC)C(=O)N[C@@H](Cc1cnc[nH]1)C(=O)N[C@@H](CC(N)=O)C(=O)N[C@@H](CC(C)C)C(=O)NCC(=O)N[C@@H](CCCCN)C(=O)N[C@@H](Cc1cnc[nH]1)C(=O)N[C@@H](CC(C)C)C(=O)N[C@@H](CC(N)=O)C(=O)N[C@@H](CO)C(=O)N[C@@H](CCSC)C(=O)N[C@@H](CCC(=O)O)C(=O)N[C@@H](CCCN=C(N)N)C(=O)N[C@H](C(=O)N[C@@H](CCC(=O)O)C(=O)N[C@@H](Cc1c[nH]c2ccccc12)C(=O)N[C@@H](CC(C)C)C(=O)N[C@@H](CCCN=C(N)N)C(=O)N[C@@H](CCCCN)C(=O)N[C@@H](CCCCN)C(=O)N[C@@H](CC(C)C)C(=O)N[C@@H](CCC(N)=O)C(=O)N[C@@H](CC(=O)O)C(=O)N[C@H](C(=O)N[C@@H](Cc1cnc[nH]1)C(=O)N[C@@H](CC(N)=O)C(=O)N[C@@H](Cc1ccccc1)C(=O)O)C(C)C)C(C)C | – | human, plasma | sc, 56.5 µg once weekly, day 36, arithmetic mean | t1/2 | 1.18 ± 0.463 h |
| C=C(C)[C@@H]1CC[C@]2(NCCN3CCS(=O)(=O)CC3)CC[C@]3(C)[C@H](CC[C@@H]4[C@@]5(C)CC=C(C6=CC[C@@](CF)(C(=O)O)CC6)C(C)(C)[C@@H]5CC[C@]43C)[C@@H]12 | – | healthy human | oral, 30 mg, single ascending dose, geometric mean | t1/2 | 21.2 h |
| CN(C)C(=O)c1cc2cnc(Nc3ccc(N4CCNCC4)cn3)nc2n1C1CCCC1 | – | human, normal renal function, plasma | oral, 400 mg, geometric mean | t1/2 | 36 h |

Repeated from above:
| SMILES | test | system | setting | measurement | value |
| --- | --- | --- | --- | --- | --- |
| CN(C)C(=O)c1cc2cnc(Nc3ccc(N4CCNCC4)cn3)nc2n1C1CCCC1 | – | human, normal renal function, plasma | oral, 400 mg, geometric mean | t1/2 | 36 h |
